Results gathered from unrelated publications.
Each numbered part is a random draw from the data of one study; scales do not carry over between parts.

Series 1 — method: RNA Bind-n-Seq; form: RNA; medium: in vitro; tested at: 200 nM; setting: whole 134-nt RNA, ends assumed; with: 150 mM KCl; baseline: input library; direction: higher = stronger binding
Target: Fragile X messenger ribonucleoprotein 1, C-terminal low-complexity region (Fmr1, Mus musculus, UniProt P35922)
Shared flanks, not repeated: GGGAGUUCUACAGUCCGACGAUC … UGGAAUUCUCGGGUGUCAAGG
Strand	log2 enrichment
ACCAUGCAGGUGGGCAUCUUUGGGAAGUGGGGCAAGGGGGGGAUAGGGAGGGGGGUAACACUUUGGGAACAGGUGGUCCCAGGUCGUUGC	0.818
CUCAAGUCCUGUGCUACACAUCGUAUGUACCGAAUCGGAAAAAGGUUUGGAGGAAAGUAUUAUGUUACGCCGUUCGGAUCUGCACUUCCA	-0.486
UCAAGUCCUGUGCUACACAUCGUAUGUACCGAAUCGGUUUUUGGAAAGGUUUGGAAAGUAUUAUGUUACGCCGUUCGGAUCUGCACUUCC	-0.94
ACCAUGCAGGUGGGCAUCUUUGGGAAGUGGGGCAAGGGGGGGAUAGGGAGGGGGGUAACACUUUGGGAACAGCUGGUCCCAGGUCGUUUC	0.992
ACCAUGCAGGGGGGCAUCUUUGGGAAGUGGGGCAAGGGGGGGAUAGGGAGGGGGGUAACACUUUGGGAACAGGUGGUCCCAGGUCGUUUC	0.665
UGUGCUACACAUCGUAUGUACCGAAUCGGGGCCCCCCCGGGCCCCCCCGGGCCCCCCCGGGGAAAGUAUUAUGUUACGCCGUUCGGAUCU	-1.83
ACCAUGCAGGUGGGCAUCUUUGGGAAGUGGGGCAAAAAGGGGAUAGGGAGGGGGGUAACACUUUGGGAACAGGUGGUCCCAGGUCGUUUC	0.624
UCAAGUCCUGUGCUACACAUCGUAUGUACCGAAUCGGGUGGGAAAGGGUUUGGGAAAGUAUUAUGUUACGCCGUUCGGAUCUGCACUUCC	1.08
UGAUCAGCAAAGCCAAGAUGAGCCUUUGAGAAGCAGAAAAGUGUUUGUGGGGCGCUGUACAGAGGACAUGACUGAGGAUGAGCUGCGGGA	-0.337
AGUCCUGUGCUACACAUCGUAUGUACCGAAUCGGGGAGGGGUUUGGGGUUUUUGGGGAAAGUAUUAUGUUACGCCGUUCGGAUCUGCACU	0.834
UGUGCUACACAUCGUAUGUACCGAAUCGGCCCCCCCGGGGCCCCCCCGGGGCCCCCCCGGGGAAAGUAUUAUGUUACGCCGUUCGGAUCU	-1.93
CACAGACAACACGCACCCACACAGACACCGAGGGAAGGGGUUGGGAUGGGGACAGGGUGCACAGCAGGGCGGGGUAGGACCCCAGCCCCU	1.17
CAAGUCCUGUGCUACACAUCGUAUGUACCGAAUCGGAAAAAAAGGUUUUUGGAGGAAAGUAUUAUGUUACGCCGUUCGGAUCUGCACUUC	-0.956
AGUCCUGUGCUACACAUCGUAUGUACCGAAUCGGAAAAAAAGGUUUUUGGUUUUUGGAAAGUAUUAUGUUACGCCGUUCGGAUCUGCACU	-1.36

Series 2 — method: protein-binding microarray; form: double-stranded DNA, one strand shown; medium: in vitro; tested at: 250 nM; setting: 60-bp whole probe; with: salmon DNA 0.4 mg/ml; baseline: random background probes; direction: higher = stronger binding; shared flanks, not repeated: GCCTAGCAC … GTCTTGATTCGCTTGACGCTGCTG
Target: Interferon regulatory factor 7, full length, phosphomimetic (IRF7, Homo sapiens, UniProt Q92985, residues 1-503, S101K/S471D/S472D/S475D/S476D/S477D/S483D/S484D/S487D)
Target sequence (chain): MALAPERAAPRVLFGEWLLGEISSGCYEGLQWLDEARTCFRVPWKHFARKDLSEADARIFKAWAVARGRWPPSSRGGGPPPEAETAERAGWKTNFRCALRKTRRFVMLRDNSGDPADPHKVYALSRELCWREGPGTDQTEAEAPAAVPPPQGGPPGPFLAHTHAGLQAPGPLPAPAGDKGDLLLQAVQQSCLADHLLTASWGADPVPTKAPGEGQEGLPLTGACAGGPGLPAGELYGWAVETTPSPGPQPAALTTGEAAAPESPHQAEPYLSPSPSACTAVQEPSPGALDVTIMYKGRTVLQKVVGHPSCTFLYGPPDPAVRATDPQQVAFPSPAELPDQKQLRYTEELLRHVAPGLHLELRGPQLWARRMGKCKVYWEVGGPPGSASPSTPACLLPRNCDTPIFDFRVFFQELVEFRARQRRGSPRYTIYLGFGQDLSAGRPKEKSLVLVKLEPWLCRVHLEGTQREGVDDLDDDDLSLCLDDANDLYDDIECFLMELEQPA
Strand	log fluorescence
TTACGTCTCCTTCTCCTTTAGTGCTAG	0.373 z-score
GACGGTCTGGGTATCGGGACGTGCTAG	-0.382 z-score
AATCTTTTCACTTTCTTTAAGTGCTAG	1.82 z-score
TTAGATTTCAGACTGGATAAGTGCTAG	0.473 z-score
TCAATTTTCTGAATGTCACTGTGCTAG	1.02 z-score
TCATATTCAGGTATATAACTGTGCTAG	1.02 z-score
TTAGGAATGCTTCTCCTTTAGTGCTAG	0.254 z-score
TTAGGTTTCGGTCTCGGCTAGTGCTAG	7.33 z-score
TTAGGTTTCGACTAACGGTTAGTGCTA	6.45 z-score
GTAGGTATCGACACTGGGTTAGTGCTA	-0.609 z-score
TTAGGACTGGGAATGGGTTAGTGCTAG	0.0503 z-score
TCAAGCATGGATCTGGGACTGTGCTAG	-0.613 z-score
TTAGATAGCGGGTATCGATTAGTGCTA	0.0554 z-score
GACTGTCTCGGACTGGGGACGTGCTAG	0.0874 z-score
GACGATCTCAGTACCGAGACGTGCTAG	-0.0878 z-score
TTAGATTTCGGGACTGGGTTAGTGCTA	0.399 z-score
GACGATTTCAGTCTCGAGAGGTGCTAG	0.26 z-score
TTAGATATCGTGACTGGATTAGTGCTA	-0.0338 z-score
TTAGGACTGGGTATCGGATAGTGCTAG	0.105 z-score

Series 3 — method: protein binding microarray; form: double-stranded DNA, one strand shown; medium: in vitro; tested at: not given; baseline: not given; direction: higher = stronger binding
Target: Histone acetyltransferase KAT6A, both winged helices, GST fusion (KAT6A, Homo sapiens, UniProt Q92794, residues 1-181)
Setting: 8-mer, flanks averaged, mean of 2 arrays, mostly near background
Target sequence (chain): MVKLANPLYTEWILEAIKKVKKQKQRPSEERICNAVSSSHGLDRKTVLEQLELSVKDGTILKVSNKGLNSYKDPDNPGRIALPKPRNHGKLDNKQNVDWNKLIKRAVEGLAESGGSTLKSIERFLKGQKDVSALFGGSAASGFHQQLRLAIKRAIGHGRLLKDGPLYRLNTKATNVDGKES
Strand	E-score
GATTAGAC	0.0247
CACGCAGC	0.162
CCTAGAGG	-0.102
TACAGGAA	-0.0358
GACAGCTA	-0.165
AACTACCT	-0.143
TAACAATA	-0.0192
AAGCCATA	-0.23
CTCCAATA	-0.0504
GCTTGAGA	-0.156
CGGTCCTA	0.0525
GGCGCAAA	0.228
CCGATTAG	-0.00771
AAGAAGCT	-0.137
CTCCTCGC	-0.0258
GATGGTCA	-0.0944
ATGGTACA	-0.189

Series 4 — method: aptamer microarray, sandwich; form: DNA with 2'F-ANA; medium: in vitro; tested at: 200 nM; with: Cy3 exosite-II aptamer, 400 nM; direction: higher = stronger binding; strand: GGTTGGTGTGGTTGG
Target: Prothrombin, mature alpha-thrombin (F2, Homo sapiens, UniProt P00734)
Setting: whole 15-mer aptamer, many near background
Modification	mean fluorescence intensity [a.u.]
2'F-ANA at 3 4 6 7 8 10 12 13 14 15	160
2'F-ANA at 1 2 3 5 7 8 9 13	78.2
2'F-ANA at 1 6 7 8 9 11 12 14 15	73.8
2'F-ANA at 2 3 5 11 14 15	123
2'F-ANA at 1 4 7 8 9 10 15	54.3
2'F-ANA at 1 4 7 15	139
2'F-ANA at 1 3 4 5 6 8 9 10 12 14	47
2'F-ANA at 1 3 4 5 6 7 8 9 10 12 13 14 15	47.3
2'F-ANA at 2 4 6 8 9 11 12 14 15	98.3
2'F-ANA at 4 5 6 7 9	88.2
2'F-ANA at 1 2 3 8 10 11 13 15	64.3
2'F-ANA at 3 4 5 10 11 13 14 15	49.3
2'F-ANA at 1 6 7 9 10 13 14	51.1
2'F-ANA at 3 8 13 14	612
2'F-ANA at 2 3 4 5 7 8 9 12 15	191
2'F-ANA at 1 2 5 6 8 11 12 14 15	63.7
2'F-ANA at 2 4 7 11 12 13 15	332
2'F-ANA at 1 3 6 9 10 11 12 14	61.5
2'F-ANA at 3 4 6 7 10 13	315
2'F-ANA at 2 3 4 6 7 8 13	461
2'F-ANA at 1 2 3 5 9 10 11 12 14	46.3
2'F-ANA at 3 6 7 11 12 13 14	505
2'F-ANA at 3 7 9 10 11 13 14 15	339
2'F-ANA at 6 9 10 11 12 13	153
2'F-ANA at 3 4 5 7 8 9 11 12 13	120

Series 5 — method: protein-binding microarray; form: double-stranded DNA, one strand shown; medium: in vitro; tested at: 0.8 µM; setting: whole 60-bp probe, no competitor; direction: higher = stronger binding; shared flanks, not repeated: … GTCTTGATTCGCTTGACGCTGCTG
Target: Centromere-binding protein 1, full length, N-terminal tag (CBF1, Saccharomyces cerevisiae, UniProt P17106, residues 1-351)
UniProt P17106, sequence (whole entry, looked up): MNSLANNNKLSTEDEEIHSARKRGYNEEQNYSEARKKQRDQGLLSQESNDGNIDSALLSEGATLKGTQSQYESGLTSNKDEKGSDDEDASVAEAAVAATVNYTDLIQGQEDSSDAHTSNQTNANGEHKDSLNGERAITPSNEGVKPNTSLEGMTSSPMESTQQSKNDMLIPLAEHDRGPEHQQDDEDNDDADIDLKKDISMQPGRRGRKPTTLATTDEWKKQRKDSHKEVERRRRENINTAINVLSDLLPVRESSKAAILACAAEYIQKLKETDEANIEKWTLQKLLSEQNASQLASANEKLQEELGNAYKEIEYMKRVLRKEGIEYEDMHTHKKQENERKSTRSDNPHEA
Strand	fluorescence intensity
CTATCTTTGCTGCATCATGCATCATATGTTTGGTTC	636 a.u.
CTAGATATCATCATTCACGAGATCCATCTCGTGTTC	943 a.u.
CTATATTTGCTCAATGGTGTCACTTCCCGTTTTTTC	557 a.u.
GAACATGCGTTTGATCATCTGACCTTTATGATTTAG	2760 a.u.
GAAGTAGGGCCATCTCGCGTGCCAGAACAGACATAG	530 a.u.
GAAGAATCCGCTTGGCGCGTGATTGAGCCAATGTAG	1060 a.u.
GAAGAATAAAAAAATCACCACGAACACACAACCTAG	566 a.u.
CCTAACTACTATAAACTGGTGACATAGCTTCGTACA	510 a.u.
CCTAACTACTATAGTGATGAGCCATAGCTTCGTACA	511 a.u.
CTAGCAAGTTAATGTCACGGCAGCTAGTGACGCTTC	574 a.u.
GAAATGGCACTTTCTCACGTGCCTTTCAGACTATAG	4240 a.u.
GAAAGAACAGACCATCAGCTTCTGTCACCCTAGTAG	477 a.u.
GAAATGCAGAAAATGTACGTGATAGTTAAGCTTTAG	601 a.u.
CTAACGATCAAATATAACATCACAAAGCTTACATTC	522 a.u.
CTAATGCAGAAAGGTTGTCTCATGAAATAAAAATTC	587 a.u.
GAACATATCGTTTACCACGTCGCCCCTTTTGTATAG	518 a.u.
CTAGGTTTATATATTCACGAGTTTCCTACTTCATTC	572 a.u.
GAAAAGTGGATCGAGAACGTGTCAAAGATTCCGTAG	600 a.u.
CCTAACTACTATACGCACGTCATATAGCTTCGTACA	523 a.u.
GAAACCACTTTGGTTACCGTGACATCCTGCGAATAG	606 a.u.
GAAGATGAATCCTGGCACGGGTTTGATTCTGATTAG	670 a.u.
CTAAAATAACTAAGTCACGATATTTGTTTTATGTTC	1360 a.u.
CCTAACTACTATAATAGCATGACATAGCTTCGTACA	564 a.u.
GAAAGTTGAGTTCGTCACCAACCGTCCCTCGACTAG	494 a.u.
CTAACGGTGTATAATCACGATCATATATCATATTTC	579 a.u.
